Measurements of several laboratories.
Protocols differ between the studies behind these lines. ± marks the error that the study gave.
ipgm-1: ipgm-1 (Caenorhabditis elegans, UniProt G5EFZ1)
UniProt G5EFZ1, sequence (whole entry, looked up): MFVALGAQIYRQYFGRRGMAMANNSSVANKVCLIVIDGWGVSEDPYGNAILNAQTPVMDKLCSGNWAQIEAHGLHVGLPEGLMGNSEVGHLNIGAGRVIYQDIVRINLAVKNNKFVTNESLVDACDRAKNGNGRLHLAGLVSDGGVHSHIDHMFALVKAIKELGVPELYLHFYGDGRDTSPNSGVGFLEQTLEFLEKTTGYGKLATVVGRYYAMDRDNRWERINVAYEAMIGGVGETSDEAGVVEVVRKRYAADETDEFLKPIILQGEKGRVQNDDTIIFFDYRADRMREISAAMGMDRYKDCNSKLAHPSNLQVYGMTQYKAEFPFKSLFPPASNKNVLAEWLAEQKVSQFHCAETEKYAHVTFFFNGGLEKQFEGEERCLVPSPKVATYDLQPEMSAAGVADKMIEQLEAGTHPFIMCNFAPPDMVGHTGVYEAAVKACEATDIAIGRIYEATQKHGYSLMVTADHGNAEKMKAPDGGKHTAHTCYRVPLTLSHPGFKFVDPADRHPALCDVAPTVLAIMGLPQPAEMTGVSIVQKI
UniProt P62139, sequence (whole entry, looked up): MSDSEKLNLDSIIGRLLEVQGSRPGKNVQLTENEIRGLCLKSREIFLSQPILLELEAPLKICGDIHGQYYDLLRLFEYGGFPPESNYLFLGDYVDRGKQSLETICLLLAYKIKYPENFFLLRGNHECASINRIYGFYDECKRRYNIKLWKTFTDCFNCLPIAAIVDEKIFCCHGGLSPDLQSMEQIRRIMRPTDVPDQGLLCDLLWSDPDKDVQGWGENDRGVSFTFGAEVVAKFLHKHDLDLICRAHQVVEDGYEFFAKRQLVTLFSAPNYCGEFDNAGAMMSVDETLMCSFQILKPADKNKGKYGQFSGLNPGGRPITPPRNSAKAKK
UniProt P61244, sequence (whole entry, looked up): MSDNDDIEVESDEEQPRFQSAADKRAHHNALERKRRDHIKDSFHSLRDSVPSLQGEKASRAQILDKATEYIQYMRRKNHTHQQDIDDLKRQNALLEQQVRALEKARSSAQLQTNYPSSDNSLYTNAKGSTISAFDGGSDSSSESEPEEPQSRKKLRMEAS
UniProt P26918, sequence (whole entry, looked up): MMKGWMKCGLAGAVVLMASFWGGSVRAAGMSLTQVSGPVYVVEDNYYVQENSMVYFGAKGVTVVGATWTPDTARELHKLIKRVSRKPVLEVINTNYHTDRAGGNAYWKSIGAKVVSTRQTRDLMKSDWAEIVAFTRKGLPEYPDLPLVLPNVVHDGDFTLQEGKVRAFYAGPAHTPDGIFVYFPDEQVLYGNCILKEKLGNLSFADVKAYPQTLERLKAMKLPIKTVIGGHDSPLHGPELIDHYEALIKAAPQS
UniProt P05804, sequence (whole entry, looked up): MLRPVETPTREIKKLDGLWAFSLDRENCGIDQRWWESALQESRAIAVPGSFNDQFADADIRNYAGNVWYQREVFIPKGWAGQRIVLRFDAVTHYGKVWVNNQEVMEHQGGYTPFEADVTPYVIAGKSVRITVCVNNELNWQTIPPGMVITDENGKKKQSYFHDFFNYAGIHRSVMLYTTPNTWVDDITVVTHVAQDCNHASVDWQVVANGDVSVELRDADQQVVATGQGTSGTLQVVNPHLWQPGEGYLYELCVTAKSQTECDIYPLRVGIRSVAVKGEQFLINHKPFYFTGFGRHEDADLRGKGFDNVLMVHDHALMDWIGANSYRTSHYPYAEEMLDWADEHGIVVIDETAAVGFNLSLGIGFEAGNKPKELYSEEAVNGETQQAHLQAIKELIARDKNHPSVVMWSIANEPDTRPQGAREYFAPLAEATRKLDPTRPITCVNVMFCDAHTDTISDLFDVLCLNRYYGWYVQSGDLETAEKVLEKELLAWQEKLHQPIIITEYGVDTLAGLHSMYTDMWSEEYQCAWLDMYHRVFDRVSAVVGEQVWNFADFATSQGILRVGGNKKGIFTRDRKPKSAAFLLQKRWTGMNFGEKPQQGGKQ
UniProt P15309, sequence (whole entry, looked up): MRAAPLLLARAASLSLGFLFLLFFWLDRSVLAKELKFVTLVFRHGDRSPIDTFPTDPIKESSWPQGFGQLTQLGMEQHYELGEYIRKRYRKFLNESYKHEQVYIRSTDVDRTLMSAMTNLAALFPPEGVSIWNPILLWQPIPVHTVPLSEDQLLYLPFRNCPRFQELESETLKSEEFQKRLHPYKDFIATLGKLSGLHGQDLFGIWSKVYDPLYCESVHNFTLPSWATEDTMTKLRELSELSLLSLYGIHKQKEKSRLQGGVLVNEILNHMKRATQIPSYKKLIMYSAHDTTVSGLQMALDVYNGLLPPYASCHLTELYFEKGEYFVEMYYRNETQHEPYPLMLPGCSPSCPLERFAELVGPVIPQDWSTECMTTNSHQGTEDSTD
UniProt P28564, sequence (whole entry, looked up): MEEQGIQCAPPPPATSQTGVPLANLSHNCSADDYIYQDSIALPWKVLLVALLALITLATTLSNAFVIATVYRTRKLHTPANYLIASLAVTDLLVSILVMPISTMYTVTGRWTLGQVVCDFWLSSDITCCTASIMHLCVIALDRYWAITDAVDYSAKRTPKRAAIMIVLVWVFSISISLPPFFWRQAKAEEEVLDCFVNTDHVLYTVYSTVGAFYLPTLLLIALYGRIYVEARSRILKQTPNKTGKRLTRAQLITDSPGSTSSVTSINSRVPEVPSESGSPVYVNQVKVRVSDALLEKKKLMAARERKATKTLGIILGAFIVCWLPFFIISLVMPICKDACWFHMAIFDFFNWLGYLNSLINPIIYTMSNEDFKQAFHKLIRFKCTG
UniProt O43148, sequence (whole entry, looked up): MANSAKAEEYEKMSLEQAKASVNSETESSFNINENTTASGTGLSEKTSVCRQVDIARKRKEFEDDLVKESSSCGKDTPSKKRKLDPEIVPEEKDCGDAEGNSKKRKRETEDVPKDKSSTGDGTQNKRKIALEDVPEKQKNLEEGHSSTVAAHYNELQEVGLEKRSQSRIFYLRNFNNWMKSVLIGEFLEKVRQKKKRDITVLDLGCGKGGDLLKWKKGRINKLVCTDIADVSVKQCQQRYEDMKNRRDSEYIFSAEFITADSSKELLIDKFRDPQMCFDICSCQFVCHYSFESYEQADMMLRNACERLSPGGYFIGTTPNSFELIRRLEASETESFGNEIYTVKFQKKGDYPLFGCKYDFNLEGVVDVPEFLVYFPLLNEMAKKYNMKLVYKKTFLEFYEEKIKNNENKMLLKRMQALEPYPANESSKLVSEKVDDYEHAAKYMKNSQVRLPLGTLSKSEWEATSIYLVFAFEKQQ
UniProt P21729, sequence (whole entry, looked up): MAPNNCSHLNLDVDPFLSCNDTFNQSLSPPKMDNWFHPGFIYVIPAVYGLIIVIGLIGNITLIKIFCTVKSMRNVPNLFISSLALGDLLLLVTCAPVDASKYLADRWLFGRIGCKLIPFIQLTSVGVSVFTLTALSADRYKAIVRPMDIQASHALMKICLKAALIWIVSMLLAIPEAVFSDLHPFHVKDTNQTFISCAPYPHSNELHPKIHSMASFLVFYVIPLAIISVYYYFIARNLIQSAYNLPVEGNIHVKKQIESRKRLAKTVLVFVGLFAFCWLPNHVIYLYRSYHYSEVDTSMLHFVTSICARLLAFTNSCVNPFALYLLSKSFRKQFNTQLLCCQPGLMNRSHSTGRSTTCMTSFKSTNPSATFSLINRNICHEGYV
UniProt P08684, sequence (whole entry, looked up): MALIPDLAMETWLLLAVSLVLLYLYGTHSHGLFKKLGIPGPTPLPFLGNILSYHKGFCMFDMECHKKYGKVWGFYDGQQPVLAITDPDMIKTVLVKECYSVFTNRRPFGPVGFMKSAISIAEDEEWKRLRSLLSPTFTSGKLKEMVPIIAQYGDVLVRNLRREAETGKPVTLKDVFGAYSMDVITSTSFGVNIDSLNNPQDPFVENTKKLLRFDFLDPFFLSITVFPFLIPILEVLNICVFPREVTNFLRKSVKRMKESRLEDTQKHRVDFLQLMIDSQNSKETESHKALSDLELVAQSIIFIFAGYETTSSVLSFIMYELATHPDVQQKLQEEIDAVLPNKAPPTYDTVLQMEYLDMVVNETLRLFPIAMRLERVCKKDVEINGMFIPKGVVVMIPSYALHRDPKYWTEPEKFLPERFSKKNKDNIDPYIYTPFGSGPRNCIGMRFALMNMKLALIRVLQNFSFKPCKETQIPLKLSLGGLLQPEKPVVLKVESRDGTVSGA
UniProt P14780, sequence (whole entry, looked up): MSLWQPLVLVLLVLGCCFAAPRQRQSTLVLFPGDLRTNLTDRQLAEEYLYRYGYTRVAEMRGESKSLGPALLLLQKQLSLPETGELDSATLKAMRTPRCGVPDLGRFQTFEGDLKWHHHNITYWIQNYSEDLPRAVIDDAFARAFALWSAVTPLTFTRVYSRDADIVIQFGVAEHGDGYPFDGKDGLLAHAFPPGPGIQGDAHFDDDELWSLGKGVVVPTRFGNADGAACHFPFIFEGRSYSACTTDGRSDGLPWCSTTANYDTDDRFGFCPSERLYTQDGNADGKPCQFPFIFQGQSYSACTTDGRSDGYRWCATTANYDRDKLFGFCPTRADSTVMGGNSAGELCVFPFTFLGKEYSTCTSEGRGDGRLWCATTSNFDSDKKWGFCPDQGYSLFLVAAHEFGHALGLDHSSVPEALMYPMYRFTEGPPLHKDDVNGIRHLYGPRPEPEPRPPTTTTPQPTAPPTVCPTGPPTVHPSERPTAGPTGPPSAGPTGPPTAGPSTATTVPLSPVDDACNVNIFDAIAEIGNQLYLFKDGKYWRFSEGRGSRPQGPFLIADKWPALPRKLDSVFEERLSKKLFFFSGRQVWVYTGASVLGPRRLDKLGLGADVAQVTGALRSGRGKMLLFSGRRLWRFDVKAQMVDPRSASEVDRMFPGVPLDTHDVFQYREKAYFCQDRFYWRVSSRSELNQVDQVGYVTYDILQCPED

| SMILES | target or system | test | system | conditions | endpoint | result |
| --- | --- | --- | --- | --- | --- | --- |
| Cc1cc(S(=O)(=O)Nc2ncccn2)c(F)cc1N(C)C1CCN([C@H](C)c2ccccc2)CC1 | SCN9A (Homo sapiens, UniProt Q15858) | sodium current, inhibitor, automated patch clamp |  | inactivated state, Vh -60 mV | IC50 | 27.7 µM |
| CCC(C)SSc1ncc[nH]1 (centres unmarked) | Genome polyprotein, 2A protease (Human enterovirus 71, UniProt B9VUU3) | protease activity, inhibitor, FRET | Enterovirus A71 | no DTT | IC50 | 16.9 ± 9.2 µM |
| CCCNC(=O)[C@H](CC(C)C)NC(=O)[C@H](Cc1c[nH]cn1)NC(=O)CNC(=O)[C@@H](NC(=O)[C@H](C)NC(=O)[C@H](Cc1c[nH]c2ccccc12)NC(=O)[C@H](CCC(N)=O)NC(=O)[C@@H](Cc1ccccc1)NC(=O)CCCCCNC(=O)CN1CCN(CC(=O)O)CCN(CC(=O)O)CCN(CC(=O)O)CC1)C(C)C [indium-111 labelled] | Gastrin-releasing peptide receptor (Mus musculus, UniProt P21729) | biodistribution | CF-1 mice, kidneys | intravenous, 1 h, unblocked | tissue uptake | 1.54 ± 0.16 %ID/g |
| Nc1ccc(/C=C/C(=O)N2CCc3c(oc4c(-c5ccc(F)cc5)cc(-c5ccc(C(=O)N6CCC(F)(F)CC6)cn5)cc34)C2)cn1 | MIA PaCa-2 | western blot, item: Bim |  | concentration not given | protein level | increased |
| NC(Cc1cc(O)c(O)cc1O)C(=O)O (racemic) | mRNA cap guanine-N(7) methyltransferase, with RAM (RNMT, Homo sapiens, UniProt O43148) | enzyme activity, inhibitor |  |  | IC50 | 3.17 ± 0.44 µM |
| C1CCN(c2nnnc3c2sc2nc(N4CCOCC4)c4c(c23)CCCC4)CC1 | Beta-glucuronidase (uidA, Escherichia coli, UniProt P05804) | enzyme activity, inhibitor |  |  | IC50 | > 100 µM |
| CC(C)[C@@H]1NC(=O)[C@H](CCCNC(=N)N)NC(=O)[C@H](Cc2ccc(O)cc2)NC(=O)[C@H](CO)NC(=O)[C@H](Cc2ccc(O)cc2)N(C)C(=O)[C@H](CC(N)=O)NC(=O)CNC(=O)[C@H](Cc2ccc(O)cc2)N(C)C(=O)[C@H](Cc2ccccc2)N(C)C(=O)[C@H](CC(=O)O)NC(=O)[C@H](Cc2ccc(O)cc2)NC(=O)[C@H](Cc2ccccc2)N(C)C(=O)[C@H](Cc2ccc(O)cc2)N(C)C(=O)[C@H](Cc2ccc(O)cc2)NC(=O)CSC[C@@H](C(N)=O)NC(=O)[C@@H]2CCCN2C1=O | ipgm-1 | enzyme activity |  |  | AC50 | 933 nM |
| C[C@@](O)(C(F)F)[C@H](NC(=O)c1ccc(C#CC#CC2CC2)cc1)C(=O)NO | UDP-3-O-acyl-N-acetylglucosamine deacetylase (Escherichia coli K-12, UniProt P0A725) | target binding in plasma, rapid equilibrium dialysis | mouse plasma | 10 µM, together with: LpxC 9 µM in buffer | buffer-to-plasma concentration ratio | 1.4 ± 0.1 |
| CN[C@](C)(C[18F])C(=O)O | SK-OV-3 tumour model |  | host not given, pancreas | 2 h, tumour-bearing | tracer uptake | 20 %ID/g |
| CNc1nc(SC)nc2ccccc12 | Cytochrome P450 3A4 (CYP3A4, Homo sapiens, UniProt P08684) | enzyme activity, inhibitor |  | together with: VG substrate | IC50 | 17 µM |
| CN[C@H](CC(C)C)C(=O)N[C@H]1C(=O)N[C@@H](CC(N)=O)C(=O)N[C@H]2C(=O)N[C@H]3C(=O)N[C@H](C(=O)N[C@H](C(=O)O)c4cc(O)cc(O)c4-c4cc3ccc4O)[C@H](O)c3ccc(c(Cl)c3)Oc3cc2cc(c3O[C@@H]2O[C@H](CO)[C@@H](O)[C@H](O)[C@H]2O[C@H]2C[C@](C)(NCc3ccc(C(=O)OCCCCCCN(Cc4ccccn4)Cc4ccccn4)cc3)[C@H](O)[C@H](C)O2)Oc2ccc(cc2Cl)[C@H]1O | Metallo-beta-lactamase type 2 (Aeromonas hydrophila, UniProt P26918) | enzyme activity, inhibitor, fluorescence |  |  | IC50 | 2.1 µM |
| C/C=C1/CN2CCc3c([nH]c4ccccc34)[C@@H]2C[C@@H]1/C(=C\OC)C(=O)OC | Htr1b (Rattus norvegicus, UniProt P28564) | ligand displacement, radioligand |  | cell membranes | IC50 | 88.3 µM |
| COc1ccc(C[C@H]2C(=O)N(C)[C@@H](Cc3ccc(O)cc3)C(=O)N(C)[C@@H](Cc3ccccc3)C(=O)N[C@@H](CC(N)=O)C(=O)NCC(=O)N(C)[C@@H](Cc3ccc(O)cc3)C(=O)N[C@@H](CC(N)=O)C(=O)N[C@@H](Cc3c[nH]cn3)C(=O)N[C@@H](Cc3ccc(O)cc3)C(=O)N[C@@H](Cc3c[nH]c4ccccc34)C(=O)N[C@H](C(N)=O)CSCC(=O)N[C@H](Cc3ccc(O)cc3)C(=O)N[C@@H](CC(=O)O)C(=O)N[C@@H](CO)C(=O)N[C@@H](Cc3ccc(O)cc3)C(=O)N[C@@H](C)C(=O)N2C)cc1 | ipgm-1 | enzyme activity |  |  | AC50 | 15.5 nM |
| CC/C(=C\CC[C@H](C)C[C@@H](C)CC[C@H](O)[C@H](C)C(=O)CC(O)[C@H](C)[C@@H](C)OC(=O)C[C@@H](O)C1=C(C)C(=O)OC1=O)C(O)CC(=O)O (some centres unmarked) | PPP1CA (Oryctolagus cuniculus, UniProt P62139) | phosphatase activity, inhibitor |  | preincubation 20 min, together with: DiFMUP | IC50 | 0.128 µM |
| CCOc1ccc2ccccc2c1/C=C\c1nc(O)c([N+](=O)[O-])c(=O)[nH]1 | ACP3 (Homo sapiens, UniProt P15309) | enzyme activity, inhibitor |  |  | IC50 | 6.9 µM |
| CC(C)[C@H](NC(=O)c1ccc(CNc2nc3c(c(=O)[nH]2)CCC3)cc1)C(=O)NC1CNC1 | MMP9 (Homo sapiens, UniProt P14780) | enzyme activity, inhibitor |  |  | IC50 | > 5 µM |
| CC[C@H](C)[C@H](NC(=O)[C@H](CCC(=O)O)NC(=O)[C@H](C)NC(=O)[C@H](C)NC(=O)[C@H](CC(C)C)NC(=O)[C@@H](NC(=O)[C@H](CCC(=O)O)NC(=O)[C@@H](NC(=O)[C@H](CCC(=O)O)NC(=O)[C@H](CC(=O)O)NC(=O)[C@H](C)NC(C)=O)[C@@H](C)O)C(C)C)C(=O)N[C@H]1CSCc2cccc(c2)CSC[C@@H](C(=O)N[C@@H](CCC(N)=O)C(=O)N[C@H](C(=O)N[C@@H](CCC(N)=O)C(=O)N[C@@H](CCC(=O)O)C(=O)N[C@@H](CCC(=O)O)C(=O)N[C@@H](CC(=O)O)C(=O)N2CCC[C@H]2C(=O)N[C@@H](CC(N)=O)C(=O)NCCC(=O)N[C@@H](CCCCNC(=O)CCCC[C@@H]2SC[C@@H]3NC(=O)N[C@@H]32)C(N)=O)C(C)C)NC(=O)[C@H](C(C)C)NC(=O)[C@H](C)NC(=O)[C@H](CCCCN)NC1=O | Protein max, homodimer bound to E-box (MAX, Homo sapiens, UniProt P61244) | DNA binding, EMSA |  | together with: DNA 40 nM | IC50 | 1.94 ± 0.71 µM |
| CN1C(=O)C2(Cc3ccc(CC45SSC(CO)(C(=O)N4C)N(C)C5=O)cc3)SSC1(CO)C(=O)N2C (racemic) | Histone acetyltransferase p300, CH1 with HIF-1α (EP300, Homo sapiens, UniProt Q09472) | binding, fluorescence polarization competition |  | DTT 1 mM, together with: HIF-1α C-TAD probe | IC50 | 1.5 ± 0.2 µM |
| CC[C@H](C)[C@@H]1NC(=O)[C@H](Cc2c[nH]c3ccccc23)NC(=O)CNC(=O)c2cc3cc(c2)C(=O)NC[C@H](NC(=O)[C@@H](C)NC(=O)[C@H](Cc2ccc(O)cc2)NC1=O)C(=O)N[C@@H](Cc1ccccc1)C(=O)N[C@@H](Cc1ccc2ccccc2c1)C(=O)N[C@@H](CCCNC(=N)N)C(=O)N[C@H](CCCNC(=N)N)C(=O)N[C@@H](CCCNC(=N)N)C(=O)N[C@H](C(=O)NCCC(=O)NCCC(=O)N[C@@H](CCCCN)C(N)=O)CNC3=O | NF-kappa-B essential modulator, with IKK-beta (IKBKG, Homo sapiens, UniProt Q9Y6K9) | inhibitor, HTRF |  |  | IC50 | 2.9 ± 0.1 µM |
| N=C(N)NC(=O)c1ccc(C(=O)NCCCC[C@H](NC(=O)CNC(=O)CCC(=O)NN=Cc2cc(C=NNC(=O)CCC(=O)NCC(=O)N[C@@H](CCCCNC(=O)c3ccc(C(=O)NC(=N)N)[nH]3)C(=O)N[C@@H](Cc3c[nH]c4ccccc34)C(=O)N[C@@H](CCCCN)C(N)=O)cc(C=NNC(=O)CCC(=O)NCC(=O)N[C@@H](CCCCNC(=O)c3ccc(C(=O)NC(=N)N)[nH]3)C(=O)N[C@@H](Cc3c[nH]c4ccccc34)C(=O)N[C@@H](CCCCN)C(N)=O)c2)C(=O)N[C@@H](Cc2c[nH]c3ccccc23)C(=O)N[C@@H](CCCCN)C(N)=O)[nH]1 | Tryptase beta-2 (TPSB2, Homo sapiens, UniProt P20231) | enzyme activity, low-affinity phase, inhibitor |  | together with: Tos-Gly-Pro-Arg-AMC substrate | IC50 | 29.9 ± 1.44 µM |

Excerpt of the above:
| SMILES | target or system | test | system | conditions | endpoint | result |
| --- | --- | --- | --- | --- | --- | --- |
| CCC(C)SSc1ncc[nH]1 (centres unmarked) | Genome polyprotein, 2A protease (Human enterovirus 71, UniProt B9VUU3) | protease activity, inhibitor, FRET | Enterovirus A71 | no DTT | IC50 | 16.9 ± 9.2 µM |
| CCCNC(=O)[C@H](CC(C)C)NC(=O)[C@H](Cc1c[nH]cn1)NC(=O)CNC(=O)[C@@H](NC(=O)[C@H](C)NC(=O)[C@H](Cc1c[nH]c2ccccc12)NC(=O)[C@H](CCC(N)=O)NC(=O)[C@@H](Cc1ccccc1)NC(=O)CCCCCNC(=O)CN1CCN(CC(=O)O)CCN(CC(=O)O)CCN(CC(=O)O)CC1)C(C)C [indium-111 labelled] | Gastrin-releasing peptide receptor (Mus musculus, UniProt P21729) | biodistribution | CF-1 mice, kidneys | intravenous, 1 h, unblocked | tissue uptake | 1.54 ± 0.16 %ID/g |
